Published values of several laboratories.
Each line is one published result; not all experiments were run side by side. ± gives the spread as reported.

| Compound | cell line | assay | conditions | CC50 |
| --- | --- | --- | --- | --- |
| C=C1C(=O)O[C@H]2[C@H]1CCC(COC(=O)c1ccc(C(F)(F)F)cc1)=C1CC[C@@](C)(O)[C@@H]12 | M9-ENL1 | cell viability, MTT | 24 h | 10 ± 2 µM |
| NC(=O)CCNC(=O)c1ccccc1S | human monocytes/macrophages | – | 7 days | > 2000 µM |
| CC[C@H](C)[C@H](NC(=O)[C@H](CCCCN)NC(=O)[C@H](CCCCN)NC(=O)[C@H](Cc1ccc(O)cc1)NC(=O)[C@H](CC(C)C)NC(=O)[C@@H]1CCCN1C(=O)[C@H](C)NC(=O)CNC(=O)CNC(=O)[C@H](CO)NC(=O)CNC(=O)CNC(=O)[C@H](CO)NC(=O)[C@H](CCC(=O)O)NC(=O)[C@H](CC(C)C)NC(=O)[C@H](CC(C)C)NC(=O)[C@H](CCCCN)NC(=O)[C@H](CCCCN)NC(=O)[C@@H](NC(=O)[C@@H](NC(=O)[C@H](CCCCN)NC(=O)[C@H](CCCCN)NC(=O)[C@H](Cc1ccc(O)cc1)NC(=O)[C@H](CC(C)C)NC(=O)[C@@H]1CCCN1C(=O)[C@H](C)NC(=O)[C@H](CCC(N)=O)NC(=O)[C@@H](N)CC(C)C)[C@@H](C)CC)[C@@H](C)CC)C(=O)N[C@H](C(=O)N[C@@H](CCCCN)C(=O)N[C@@H](CCCCN)C(=O)N[C@@H](CC(C)C)C(=O)N[C@@H](CC(C)C)C(=O)N[C@@H](CCC(=O)O)C(=O)N[C@@H](CO)C(N)=O)[C@@H](C)CC | MDA-MB-231 | resazurin | 24 h | > 32 µM |
| COc1cc2ncnc(Nc3ccc(F)c(Cl)c3)c2cc1OCCCN1CCOCC1 | human cells | – | concentration not given, 2 (unit not given) | > 20 µM |
| O=C(NC(Cc1ccccc1)C(=O)Nc1ccc([N+](=O)[O-])cc1Cl)c1cc(Cl)ccc1O (stereo not shown) | A549 | – | – | 6.13 µM |
| CN(C(=O)[C@H](Cc1ccccc1)NC(=O)Cc1ccc2ccccc2c1)c1ccc(Cl)cc1 | TZM-GFP | XTT | 72 h | < 50 µM |
| O=C(Nc1cc(F)cc(C(F)(F)F)c1)c1ccc(Cl)cc1O | A549 | – | – | 4.18 µM |
| COc1ccc(N(C)C(=O)C(Cc2ccccc2)NC(=O)CN2C(=O)NC3(CCCCC3)C2=O)cc1 (stereo not shown) | TZM-GFP | XTT | 72 h | > 100 µM |
| CCN(CC)CCN1c2ccccc2Sc2ccc3ccccc3c21 | HepG2 | cell viability | 24 h, 37 °C | 50.8 µM |
| CN(C)[C@@H](CCOc1cccc2ccccc12)c1ccccc1 | human cells | – | concentration not given, 2 days | 18.1 µM |
| CC[C@H](C)[C@H](NC(=O)[C@H](CCCCN)NC(=O)[C@H](CCCCN)NC(=O)[C@H](Cc1ccc(O)cc1)NC(=O)[C@H](CC(C)C)NC(=O)[C@@H]1CCCN1C(=O)[C@H](C)NC(=O)CNC(=O)CNC(=O)[C@H](CO)NC(=O)CNC(=O)CNC(=O)[C@H](CO)NC(=O)[C@@H](NC(=O)[C@H](CC(C)C)NC(=O)[C@H](CC(C)C)NC(=O)[C@H](C)NC(=O)[C@H](Cc1c[nH]c2ccccc12)NC(=O)[C@H](Cc1ccc(O)cc1)NC(=O)[C@H](Cc1c[nH]cn1)NC(=O)[C@H](CCC(=O)O)NC(=O)[C@H](Cc1ccccc1)NC(=O)[C@@H](NC(=O)[C@H](CC(C)C)NC(=O)[C@@H]1CCCN1C(=O)[C@H](C)NC(=O)[C@H](CCC(N)=O)NC(=O)[C@@H](N)CC(C)C)[C@@H](C)O)[C@@H](C)O)C(=O)N[C@H](C(=O)N[C@@H](CCCCN)C(=O)N[C@@H](CCCCN)C(=O)N[C@@H](CC(C)C)C(=O)N[C@@H](CC(C)C)C(=O)N[C@@H](CCC(=O)O)C(=O)N[C@@H](CO)C(N)=O)[C@@H](C)CC | K562 | resazurin | 24 h | 16.4 ± 3.3 µM |
| CN(C)CC/C=C1/c2ccccc2Sc2ccc(Cl)cc21 | human cells | – | concentration not given, 2 days | > 20 µM |
| CC(C)C[C@H](NC(=O)c1cc(Cl)ccc1O)C(=O)Nc1ccc([N+](=O)[O-])cc1Cl | A549 | – | – | 8.03 µM |
| CN(C)CCCN1c2ccccc2CCc2ccc(Cl)cc21 | Vero E6, HeLa, HEK293T, Huh7.5 | nuclei count | 16 h, mean of four cell lines | > 50 µM |
| C[C@H](NP(=O)(OCCOCn1cnc2c(=O)[nH]c(N)nc21)Oc1ccccc1)C(=O)OCc1ccccc1 (stereo partly shown) | MT4 | cell growth or viability | – | > 150 µM |
| CN(C)c1ccc(Cn2c(=O)n(Cc3ccc(C(=O)NCC4COC4)cc3)c(=O)c3ccccc32)cc1 | HEp-2 | – | – | 44.7 ± 7.2 µM |

| Compound | cell line | assay | conditions | CC50 |
| --- | --- | --- | --- | --- |
| C[C@H]1CCC[C@H](O)CCCCCc2cc(O)cc(O)c2C(=O)O1 | BeWo cells | – | 24 h | 77.4 ± 6.4 µM |
| CCC(C)[C@H](NC(=O)c1cc(Cl)ccc1O)C(=O)Nc1ccc([N+](=O)[O-])cc1Cl (stereo partly shown) | A549 | – | – | 5.2 µM |
| CC[C@H](C)[C@@H]1NC(=O)[C@H](CO)NC(=O)[C@H](CCC(=O)O)NC(=O)[C@H](CC(C)C)NC(=O)[C@H](CC(C)C)NC(=O)[C@H](CCCCN)NC(=O)[C@H](CCCCN)NC(=O)[C@H]([C@@H](C)CC)NC(=O)[C@H]([C@@H](C)CC)NC(=O)[C@H](CCCCN)NC(=O)[C@H](CCCCN)NC(=O)[C@H](Cc2ccc(O)cc2)NC(=O)[C@H](CC(C)C)NC(=O)[C@@H]2CCCN2C(=O)CNC(=O)CNC(=O)[C@@H](N)CSSC[C@@H](C(N)=O)NC(=O)CNC(=O)CNC(=O)[C@H]([C@@H](C)O)NC(=O)[C@H](CC(C)C)NC(=O)[C@H](CCC(N)=O)NC(=O)[C@H](C)NC(=O)[C@H](Cc2c[nH]c3ccccc23)NC(=O)[C@H](Cc2ccc(O)cc2)NC(=O)[C@H](Cc2c[nH]cn2)NC(=O)[C@H](CCC(=O)O)NC(=O)[C@H](Cc2ccccc2)NC(=O)[C@H]([C@@H](C)O)NC(=O)[C@H](CC(C)C)NC(=O)CNC(=O)CNC(=O)[C@H](CO)NC(=O)CNC(=O)CNC(=O)[C@H](CO)NC(=O)CNC(=O)CNC(=O)[C@H](CCCCN)NC(=O)[C@H](CCCCN)NC(=O)[C@H]([C@@H](C)CC)NC1=O | K562 | resazurin | 24 h | 5.1 ± 0.2 µM |
| CC(C)[C@H](NC(=O)c1cc(Cl)ccc1O)C(=O)Nc1ccc(C(F)(F)F)cc1Cl | A549 | – | – | 8.34 µM |
| Cc1oncc1C(=O)Nc1ccc(C(F)(F)F)cc1 | Huh-7 | CPE | 7 days | > 100 µM |
| CC(CN1c2ccccc2Sc2ccccc21)N(C)C (stereo not shown) | human cells | – | concentration not given, 2 days | > 20 µM |
| CCC(CC)COC(=O)[C@H](C)N[P@](=O)(OC[C@H]1O[C@@](C#N)(c2ccc3c(N)ncnn23)[C@H](O)[C@@H]1O)Oc1ccccc1 | Huh-7 | CPE | 7 days | 15.2 µM |
| C=C1C(=O)O[C@@H]2[C@H]1CC[C@H](C)[C@@]1(O)C=CC(=O)[C@@]21C | BALB/c mouse splenocytes | propidium iodide flow cytometry | 48 h, 10% fetal calf serum | 4.4 ± 2.93 µM |
| CN(C)CCCN1c2ccccc2Sc2ccc(Cl)cc21 | HepaRG | cytotoxicity | 48 and 72 h | 10 to 50 µM |
| O=C(O[C@H]1CN2CCC1CC2)N1CCc2ccccc2[C@@H]1c1ccccc1 | human cells | – | concentration not given, 2 (unit not given) | > 20 µM |
| O=C(O)COc1c2c(c(OCC(=O)O)c3c1C1CC3c3cc4c(cc31)C1CC4c3ccccc31)C1CC2c2cc3c(cc21)C1CC3c2ccccc21 | Caco-2 | CellTiter-Glo | 2 days, highest concentration 300 µM | 117 µM |
| O=C(Nc1cc(C(F)(F)F)cc(C(F)(F)F)c1)c1cc(Cl)ccc1O | A549 | – | – | 1.81 µM |
| CC[C@H](C)[C@H](NC(=O)[C@H](CCCCN)NC(=O)[C@H](CCCCN)NC(=O)[C@H](Cc1ccc(O)cc1)NC(=O)[C@H](CC(C)C)NC(=O)[C@@H]1CCCN1C(=O)[C@H](C)N)C(=O)N[C@H](C(=O)N[C@@H](CCCCN)C(=O)N[C@@H](CCCCN)C(=O)N[C@@H](CC(C)C)C(=O)N[C@@H](CC(C)C)C(=O)N[C@@H](CCC(=O)O)C(=O)N[C@@H](CO)C(N)=O)[C@@H](C)CC | MDA-MB-231 | resazurin | 24 h | > 32 µM |
| O=C(Nc1ccc([N+](=O)[O-])cc1Cl)c1cccc([N+](=O)[O-])c1O | A549 | – | – | 13.2 µM |
| CCN(CCO)CCCC(C)Nc1ccnc2cc(Cl)ccc12 (stereo not shown) | Vero E6, HeLa, HEK293T, Huh7.5 | nuclei count | 16 h, mean of four cell lines | > 50 µM |

For quick reference, copied from above:
| Compound | cell line | assay | conditions | CC50 |
| --- | --- | --- | --- | --- |
| O=C(NC(Cc1ccccc1)C(=O)Nc1ccc([N+](=O)[O-])cc1Cl)c1cc(Cl)ccc1O (stereo not shown) | A549 | – | – | 6.13 µM |
| CC[C@H](C)[C@@H]1NC(=O)[C@H](CO)NC(=O)[C@H](CCC(=O)O)NC(=O)[C@H](CC(C)C)NC(=O)[C@H](CC(C)C)NC(=O)[C@H](CCCCN)NC(=O)[C@H](CCCCN)NC(=O)[C@H]([C@@H](C)CC)NC(=O)[C@H]([C@@H](C)CC)NC(=O)[C@H](CCCCN)NC(=O)[C@H](CCCCN)NC(=O)[C@H](Cc2ccc(O)cc2)NC(=O)[C@H](CC(C)C)NC(=O)[C@@H]2CCCN2C(=O)CNC(=O)CNC(=O)[C@@H](N)CSSC[C@@H](C(N)=O)NC(=O)CNC(=O)CNC(=O)[C@H]([C@@H](C)O)NC(=O)[C@H](CC(C)C)NC(=O)[C@H](CCC(N)=O)NC(=O)[C@H](C)NC(=O)[C@H](Cc2c[nH]c3ccccc23)NC(=O)[C@H](Cc2ccc(O)cc2)NC(=O)[C@H](Cc2c[nH]cn2)NC(=O)[C@H](CCC(=O)O)NC(=O)[C@H](Cc2ccccc2)NC(=O)[C@H]([C@@H](C)O)NC(=O)[C@H](CC(C)C)NC(=O)CNC(=O)CNC(=O)[C@H](CO)NC(=O)CNC(=O)CNC(=O)[C@H](CO)NC(=O)CNC(=O)CNC(=O)[C@H](CCCCN)NC(=O)[C@H](CCCCN)NC(=O)[C@H]([C@@H](C)CC)NC1=O | K562 | resazurin | 24 h | 5.1 ± 0.2 µM |
| CN(C(=O)[C@H](Cc1ccccc1)NC(=O)Cc1ccc2ccccc2c1)c1ccc(Cl)cc1 | TZM-GFP | XTT | 72 h | < 50 µM |
| O=C(Nc1ccc([N+](=O)[O-])cc1Cl)c1cccc([N+](=O)[O-])c1O | A549 | – | – | 13.2 µM |
| CN(C)CCCN1c2ccccc2CCc2ccc(Cl)cc21 | Vero E6, HeLa, HEK293T, Huh7.5 | nuclei count | 16 h, mean of four cell lines | > 50 µM |
